Measured values collected from several papers.
A part holds a random share of what one study measured.

Block 1
Target: Fragile X messenger ribonucleoprotein 1, C-terminal low-complexity region (Fmr1, Mus musculus, UniProt P35922)
Method: RNA Bind-n-Seq
Molecule type: RNA
Matrix: in vitro
Concentration: 200 nM
Setting: whole 134-nt RNA, ends assumed
Together with: 150 mM LiCl
Baseline: input library
Reading: higher = stronger binding
Library: 7-deaza-guanosine replaces G
Constant ends, left off below: GGGAGUUCUACAGUCCGACGAUC … UGGAAUUCUCGGGUGUCAAGG
| Sequence | log2 enrichment |
| --- | --- |
| GUCCUGUGCUACACAUCGUAUGUACCGAAUCAAAUUUUUAAAUUUAAACCCCCCCAAAAAAGUAUUAUGUUACGCCGUUCGGAUCUGCAC | 1.71 |
| CACAGACAACACGCACCCACACAGACACAGAGGGAAGGGGUUGGGAUGGGGACAGGGUGCACAGCAGGGCGGGGUAGGACCGCAGCCCCU | -0.29 |
| GCAUGAAGUAAAAACAAAUGGAAAUGCUUCGGAUAGUGGCAGGGGUGGGGGUUGCUAAGGAAAGGGUGGGAUGGGAGUGGGUAAAGAGUU | 1.23 |
| UCCUGUGCUACACAUCGUAUGUACCGAAUCGGUUUUUUGGGUUUUUUGGGUUUUUUGGGAAAGUAUUAUGUUACGCCGUUCGGAUCUGCA | -0.344 |
| UCAAGUCCUGUGCUACACAUCGUAUGUACCGAAUCGGGUUUGGGAAAGGGUGGGAAAGUAUUAUGUUACGCCGUUCGGAUCUGCACUUCC | -1.92 |
| AGUCCUGUGCUACACAUCGUAUGUACCGAAUCGGGGAAAAAAAGGGGAGGGGUGGGGAAAGUAUUAUGUUACGCCGUUCGGAUCUGCACU | -0.476 |
| ACCAUGCAGGUGGGCAUCUUUGGGAAGUGGGGCAAGAAAGGGAUAGGGAGGGGGGUAACACUUUGGGAACAGGUGGUCCCAGGUCGUUUC | 0.718 |
| UGGGAGGUGGAUUUUGUUUAUUUUUUUAGUUCAUUUCCAGGGGUGGGAAUUUUUUUUUAAUAUGUGUCAUGAAUAAAGUUGUUUUUGAAA | -1.18 |
| UGGAGCUACAGAUGGUGUCCUUCCUGCCAGGUGUGUGUGGAGGCCAGUAUGAAGCUGAAAAAGCAGGUGACAGUGUGUGGGGCUGCCAUC | 0.627 |
| UAACUUUAGAGGAGGAUCUGAUGGAUAUGGCAGUGGACGUGGAUUUGGGGAUGGCAAUAAUGGGUAUGGAGGAGGACCUGGAGGUGGCAA | 1.06 |
| CAAGUCCUGUGCUACACAUCGUAUGUACCGAAUCGGAAAAAAAGGUUUUUGGAGGAAAGUAUUAUGUUACGCCGUUCGGAUCUGCACUUC | -1.67 |

Block 2
Target: RNA binding protein fox-1 homolog 2, RRM domain, GST-SBP tag (RBFOX2, Homo sapiens, UniProt O43251-10, residues 100-194)
Method: RNA Bind-n-Seq
Molecule type: RNA
Matrix: in vitro
Concentration: 365 nM
Setting: natural RNA segment, single round, ends assumed
Baseline: no-protein control
Reading: higher = stronger binding
Constant ends, left off below: GGGAGUUCUACAGUCCGACGAUC … UGGAAUUCUCGGGUGCCAA
Target sequence (chain): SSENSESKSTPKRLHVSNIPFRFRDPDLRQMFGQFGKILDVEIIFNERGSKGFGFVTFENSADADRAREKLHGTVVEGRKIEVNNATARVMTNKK
| Sequence | RBNS enrichment (R) |
| --- | --- |
| GGUAGGGGAGGUAUCCAUUCAUAAAAUGAAUGUGGGUGAAGCCGCCCUAAGGAUUUUCCUUUAAUUUCUCUGGAGUAAUACUGUACCAUACUGGUCUUUGCUUUUAGUAA | 0.314 |
| UCCCUGUACGAGGAUGACAUCACCUUCUGAUACCCUGCCCUAGUCCCCCACCUUUGACUUAAGAUCCCACACCUCACAAACCUACAGCCCAGAAACCAGAAGCCCCUAUA | 1.2 |
| UGAUUCUGGUGAUCCAGUGAUCUAUGGAAGUCGUGUCUUACUCCAGGUGAAGGGGGAAAAAAAAAGCCUAUACUUUGGCAGGUUAUGAACUUUGAAUGUGAUGAAAUGAC | 2.23 |
| CUGCUAGCUUGCAAAGUUAUGAGAGUUUAAAAAAUAAAAUAUAUGAAAAUAUGUAAAGCUGUUGAGAUGUGUUUACUUAUACUUCAGAACAUUAAAAGUUUAAAAACUGG | 1.02 |
| CAUUAAAAUGAUCCACACCUUGAACACUGCCCUCUCUAGAAGGUUGAUUUUGAUCAGCCUUUUGAAGAUGGGUGUCGUUUCCCUAACUUAUCUCACAGAAUUUUGAGUGU | 0.253 |
| UAGAAUUAUUUAAUUUUGUGAUUUGUUCUUCCAUAUGACAUUGAGCAAAUAGAUCUGUUUCAAAAUAUGUUCCCGCUAUGUGGAUAACUCUUCUUUUUAAAAAGAAAAUA | 0.409 |
| UUGCCUGUUUCCACUUACCAGGAAAUUCCUUCAGAACUAGAUUAGCAUUGCCCUGCCUGUCUGAAAGGACAGUUUACCUAAUGGUGCCAGCCUCCUUUUGCUUUGGCAAG | 0.333 |
| GACAGGCAGACAGACAUGAACAUUACUGAUGUGCUUUUCCGACCUGCUAUGUGCAGGCAGGCAGGGGUUAUCUUCCUGGGUCUCACAGACUUUCAUGGUUUUCCUUACCC | 0.367 |
| CUCGAAACAUGUGCAUGGCGUCUGUACGUGGCAGGUGGCAGGUGGUGUUGGCAAUGGUCCUGGAGGGAAUGGCCUGGGCGUAGGCUGCCUCCAGCUGCCCGUAACCACCG | 2.38 |

Block 3
Target: Interferon regulatory factor 7, full length, phosphomimetic (IRF7, Homo sapiens, UniProt Q92985, residues 1-503, S101K/S471D/S472D/S475D/S476D/S477D/S483D/S484D/S487D)
Method: protein-binding microarray
Molecule type: double-stranded DNA, one strand shown
Matrix: in vitro
Concentration: 250 nM
Setting: 60-bp whole probe
Together with: salmon DNA 0.4 mg/ml
Baseline: random background probes
Reading: higher = stronger binding
Constant ends, left off below: GCCTAGCAC … GTCTTGATTCGCTTGACGCTGCTG
Residues (chain): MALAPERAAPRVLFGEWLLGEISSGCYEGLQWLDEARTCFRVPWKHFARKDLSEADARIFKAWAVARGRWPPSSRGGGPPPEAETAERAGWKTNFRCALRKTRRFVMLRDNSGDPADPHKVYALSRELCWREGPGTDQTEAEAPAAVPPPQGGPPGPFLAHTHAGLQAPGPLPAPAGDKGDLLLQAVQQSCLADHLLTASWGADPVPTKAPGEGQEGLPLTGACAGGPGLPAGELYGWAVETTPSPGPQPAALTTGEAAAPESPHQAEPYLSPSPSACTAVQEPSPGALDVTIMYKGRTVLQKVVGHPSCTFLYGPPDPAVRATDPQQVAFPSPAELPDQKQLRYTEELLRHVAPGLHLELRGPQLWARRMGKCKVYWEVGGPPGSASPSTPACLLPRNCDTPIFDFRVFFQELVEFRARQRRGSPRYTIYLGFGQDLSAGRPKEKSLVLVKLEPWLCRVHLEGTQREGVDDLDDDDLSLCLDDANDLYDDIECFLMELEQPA
| Sequence | log fluorescence [z-score] |
| --- | --- |
| TCAATGATCTTCCTTCATACTGTGCTA | 0.0722 |
| AACACTCTTCTTTTGCTAATGTGCTAG | 0.944 |
| TTAGGGCTGGGGACTGGGTTAGTGCTA | -0.936 |
| AGGTTTCTATATTTGCTTCAGTGCTAG | 5.52 |
| TATCTTATCCTATCAGTTTAGTGCTAG | 1.23 |
| GACGGACTGCTTTTCCTGACGTGCTAG | -0.0306 |
| TTTTCTCTCCCATTCTGAATGTGCTAG | 2.07 |
| TCATCTGTCCCTCTGTGACTGTGCTAG | 0.16 |
| GACGGTTCCGGTTTCGGGGCGTGCTAG | 5.86 |
| GACGGTACCGGGACTGGGGACGTGCTA | -0.558 |
| TTAGATTTCAGGCTGGATTAGTGCTAG | -0.241 |
| GACGGACTGGTTATCCTGACGTGCTAG | -0.827 |
| TTAGGTATCGGTTTCGGTTTGTGCTAG | 13.2 |
| CTGGTGCTCATCTGTCATGTTGTGCTA | -0.523 |
| AGCAGTTTCTCAACCACTTTGTGCTAG | 0.387 |
| TCACGGGCTTCTTTTTCTACTGTGCTA | -0.392 |
| GACGGTCTCCTACCGCTGACGTGCTAG | -0.329 |
| TTAGATCTCGGACTGGGTTAGTGCTAG | 0.105 |
| GACGGTATCAACACTGGGGACGTGCTA | -0.515 |
| TTAGAACTGTGGTTTCGATTAGTGCTA | 8.89 |
| TTAGGTCTCCTTATTCTTTAGTGCTAG | 0.354 |
| TTAGACCTCAGTCTCGATTAGTGCTAG | 1.66 |
| TTAGGTCTACTTCTCCTTTAGTGCTAG | 0.274 |
| GACGGACTGGAGTTTCGGGACGTGCTA | 1.34 |
| GGATGTGTCTTAAATAGGGGAGTGCTA | -0.323 |

Block 4
Target: RING finger protein unkempt homolog, zinc fingers 1-6, GST-SBP tag (UNK, Homo sapiens, UniProt Q9C0B0, residues 30-357)
Method: RNA Bind-n-Seq
Molecule type: RNA
Matrix: in vitro
Concentration: not given
Setting: RNA with constant flanks, human and mouse sites, ends assumed
Baseline: input RNA pool
Reading: higher = stronger binding
Constant ends, left off below: GGGAGUUCUACAGUCCGACGAUC … CAACAGAGGAUUGAGCAUCA
Target sequence (chain): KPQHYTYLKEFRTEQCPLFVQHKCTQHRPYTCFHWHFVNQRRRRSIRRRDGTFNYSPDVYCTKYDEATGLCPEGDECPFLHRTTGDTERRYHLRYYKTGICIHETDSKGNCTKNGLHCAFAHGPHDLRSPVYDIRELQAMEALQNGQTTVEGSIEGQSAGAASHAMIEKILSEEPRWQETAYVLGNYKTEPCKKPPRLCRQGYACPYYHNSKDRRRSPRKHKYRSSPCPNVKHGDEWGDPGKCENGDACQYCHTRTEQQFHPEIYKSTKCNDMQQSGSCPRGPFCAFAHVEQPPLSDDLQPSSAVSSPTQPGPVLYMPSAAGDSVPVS
| Sequence | bound/input enrichment [ratio] |
| --- | --- |
| AAUCUCAUGAAAGCAGAACAGAUGCAUCAAAGUUUUGUGGCUGAAACAAGUCAGCGCAUUAGUAAGUUACAGGAAGACACUUCUGCUCACCAGAAUGUUGUUGCUGAAACCUUAAGUGCC | 0.325 |
| CACAGCCUGAACAUCGUCCACCGUGACAUCAAGCCAGAGAAUCUGCUGGUGUAUGAGCACCAGGAUGGCAGUAAGUCACUCAAGUUGGGUGACUUUGGCCUGGCCACAAUUGUCGACGGC | 0.082 |
| AAGUGCUGGGAUCACUGUGUGCUACCACUUCCCACCCUAAUUUAAAGGGAAGCAAUUCUUCUGGUACCAUCUAAGCAGCCUCCUCUUCUACUUACAGCAGUGGGAUCCAACCAGCCUGAG | 0.254 |
| AAUAAGGAAAAGUAUGGCAAACCAAAUAAACGGAAAGGUUUUAAUGAAGGAUUGUGGGAGAUAGAUAACAAUCCGAAAGUGAAAUUUUCAAGUCAACAGGCAUCAACUAAACAAUCCAAU | 0.246 |
| GGAGUCAAAGGGCUAACAGAACAAGAAGUAGAAACAAUAUUGGAUAAGGCAAUGGUCCUUUUUAGGUUUAUGCAAGAAAAAGAUGUAUUUGAACGUUAUUAUAAACAACACCUGGCAAGA | 11.5 |
| CUCUAUACUUGCUUCCAAUCCAUACAAGCCCAAAAAAGCUCAGAGUAUGAGAGAAUUGAAAUCCCAAUCCAUAUUGUACCUCAUAUCACUAUUGGGAAAGUAUGCCUUGAAUCUGCAGUA | 0.171 |
| GCAGGCAAUUGGGGAGCUUAGUCUAAGAGCAAUGGCUCCCGGGGUUUCCCCCACCAAACAGUCUUCCCUUACCUCGGUGGACUUGUAUAUAUUCUAGAGAAGGGCGUGGGUUGCACCGUC | 0.449 |
| UACUCGGACAAGUACUUCGACGAACACUACGAGUACCGGCAUGUUAUGUUACCCAGAGAACUUUCCAAACAAGUACCUAAAACUCAUCUGAUGUCUGAAGAGGAGUGGAGGAGACUUGGU | 0.131 |
| AUCUGCCUACACGCCUUCUACUAUGCCAUAUGGAAGCGGUACGGGGCCCUCCCUGAGCGCUAUAACUGGCAACUCCAGGCCCCUGAUGUUCUCUUCUACCCUCUGAGACCAGAGCUAGUG | 0.332 |
| UGGGUGAUGGAGGAAAUGAGAGAGGAAUGCUCUUGAAAGGUGGUCUGUGGAUCUGUCUGAAUAGAAAGAGCACAGUAAGUAUGCAUUGCCGGAGAAAACGUCCUUGAAGCUGCUUGUCUC | 0.251 |
| AAACCUGUAGGGUUUGGAGAAGAGUUUGACGAGGAUGAGCUCAUGGCGGAAUUAGAAGAACUAGAACAGGAGGAACUAGACAAGAAUUUGCUGGAAAUCAGUGGACCCGAAACAGUCCCU | 1.86 |

Some of these lines once more (block 3):
| Sequence | log fluorescence [z-score] |
| --- | --- |
| TTTTCTCTCCCATTCTGAATGTGCTAG | 2.07 |
| TCATCTGTCCCTCTGTGACTGTGCTAG | 0.16 |
| GACGGTTCCGGTTTCGGGGCGTGCTAG | 5.86 |
| GACGGTACCGGGACTGGGGACGTGCTA | -0.558 |
| TTAGATTTCAGGCTGGATTAGTGCTAG | -0.241 |
| GACGGACTGGTTATCCTGACGTGCTAG | -0.827 |
| TTAGGTATCGGTTTCGGTTTGTGCTAG | 13.2 |
| CTGGTGCTCATCTGTCATGTTGTGCTA | -0.523 |
